Results collected from several papers.
Numbers after ± are the reported error.

O=C(c1ccc(F)cc1)C1CCN(C2Cc3c(cccc3OCC[18F])CC2O)CC1 (single isomer, unassigned; (-))
tissue uptake (Sprague-Dawley rat, male, cerebellum; 5 min post-injection): 0.593 %ID/g

CCCC[C@H](NC(=O)CCOCCOCCNC(=O)CN1CCN(CC(=O)O)CCN(CC(=O)O)CCN(CC(=O)O)CC1)C(=O)N[C@H]1CC(=O)NCCCC[C@@H](C(N)=O)NC(=O)[C@H](Cc2c[nH]c3ccccc23)NC(=O)[C@H](CCCNC(=N)N)NC(=O)[C@@H](Cc2ccccc2)NC(=O)[C@H](Cc2c[nH]cn2)NC1=O [gallium-68 labelled]
tissue uptake (C57BL/6J mice male B16-F10 tumour, intestine; 1 h post injection, unblocked): 0.3 ± 0.1 %ID/g

N=C(N)NCc1ccc(C(=O)NCCCC[C@H](NC(=O)N[C@@H](CCC(=O)O)C(=O)O)C(=O)O)cc1[131I]
tissue uptake (SCID mouse, PC-3 xenografts, spleen; 4 h): 3.5 ± 2.69 %ID/g

O=C(O)CC[C@H](NC(=O)O[C@@H](CCCCNC(=O)c1ccc([18F])cc1)C(=O)O)C(=O)O
tissue uptake (mouse, PC-3 PIP/flu xenografts, fat; 90 min): 0.11 ± 0.06 %ID/g

C=Cc1cc(O)cc2nc(-c3ccc(O)c([76Br])c3)oc12
tissue uptake (female C57BL/6 mouse, blood; 3 h, high dose, added: estradiol 20 µg blocking): 0.19 ± 0.08 %ID/g

N=C(N)NCc1ccc(C(=O)NCCCC[C@H](NC(=O)CCCCCCC(=O)NCCCC[C@H](NC(=O)N[C@@H](CCC(=O)O)C(=O)O)C(=O)O)C(=O)O)cc1[211At]
tissue uptake (SCID mouse, PC-3 xenografts, bone; 21 h): 0.42 ± 0.16 %ID/g

CN[C@](C)(C[18F])C(=O)O
tissue uptake (SCID mouse MDA-MB-468 xenograft, spleen; 30 min, post injection): 8.6 ± 1.9 %ID/g

CCNc1cc2[o+]c3cc(NCC)c(C)cc3c(-c3ccccc3C(=O)OCCOCC[18F])c2cc1C
tissue uptake (rat, blood; 30 min): 0.07 ± 0.01 %ID/g

COc1cc2ncnc(Oc3cccc(N[11C](=O)Nc4cc(C(C)(C)C(F)(F)F)on4)c3)c2cc1OC
tissue uptake (Balb/c nude mouse, female, A375 melanoma xenograft, heart; 6.6 MBq, 30 min): 3.33 ± 0.11 %ID/g

N=C(N)NCc1ccc(C(=O)NCCCC[C@H](NC(=O)N[C@@H](CCC(=O)O)C(=O)O)C(=O)O)cc1[211At]
tissue uptake (SCID mouse, PC-3 xenografts, kidneys; 1 h): 103 ± 24 %ID/g

C[C@]12CC[C@H](OCC[18F])C[C@H]1CC[C@@H]1[C@@H]2CC[C@]2(C)[C@@H](c3ccc(=O)oc3)CC[C@]12O
tissue uptake (micro-PET; BALB/c nude mice, HepG2 xenograft, liver; intravenous, 7.4 MBq, 60 min): 5.42 ± 1.27 %ID/g

COc1cc(C(=O)NCCOCCOCCOCCNC(=O)c2ccc([18F])nc2)ccc1NC(=O)C1NC(CC(C)(C)C)C(C#N)(c2ccc(Cl)cc2F)C1c1cccc(Cl)c1F (stereo not shown)
tissue uptake (athymic male mice, SJSA-1 xenograft, large intestine; 2 h): 2.13 ± 0.83 %ID/g

N=C(N)NCc1ccc(C(=O)NCCCC[C@H](NC(=O)CCCCCCC(=O)NCCCC[C@H](NC(=O)N[C@@H](CCC(=O)O)C(=O)O)C(=O)O)C(=O)O)cc1[131I]
tissue uptake (SCID mouse, PC-3 xenografts, blood; 21 h): 0.02 ± 0.01 %ID/g

Some of these lines once more:
COc1cc2ncnc(Oc3cccc(N[11C](=O)Nc4cc(C(C)(C)C(F)(F)F)on4)c3)c2cc1OC
tissue uptake (Balb/c nude mouse, female, A375 melanoma xenograft, heart; 6.6 MBq, 30 min): 3.33 ± 0.11 %ID/g

N=C(N)NCc1ccc(C(=O)NCCCC[C@H](NC(=O)N[C@@H](CCC(=O)O)C(=O)O)C(=O)O)cc1[211At]
tissue uptake (SCID mouse, PC-3 xenografts, kidneys; 1 h): 103 ± 24 %ID/g
